Measurements of several laboratories.
Numbered parts are unrelated; each lists some results of a single study.

Sample 1 — effect on: enzyme activity; tested at: 20 µM; notes: with DTT
Target: Replicase polyprotein 1ab, main protease (rep, Severe acute respiratory syndrome coronavirus 2, UniProt P0DTD1)
Structure (SMILES)	inhibition [%]
Oc1ccc2ccccc2c1SSc1c(O)ccc2ccccc12	-61.1
CCOc1ccc(Nc2nc(-c3c(C)nc4ccccn34)cs2)cc1	-23.7
Nc1nnc(Sc2ncc([N+](=O)[O-])s2)s1	25.9
O=C(O)/C(S)=C/c1ccc(I)cc1	-14.6
COC(=O)[C@H](CCSC)NC(=O)c1ccc(NC[C@@H](N)CS)cc1-c1ccccc1	83

Sample 2 — mode: inhibitor; tested at: 20 µM
Target: Replicase polyprotein 1ab, nsp13 helicase (rep, Severe acute respiratory syndrome coronavirus 2, UniProt P0DTD1)
SMILES	inhibition [%]
Cc1cc(NCCO)nc(-c2ccc(Br)cc2)n1	7.59
c1ccc(CNc2ncnc3[nH]cnc23)cc1	1.75
Nc1ncnc2c1nc(Br)n2[C@@H]1O[C@@H]2COP(=O)(O)O[C@H]2[C@H]1O	1.4
c1cc(OCCN2CCCCC2)cc(-c2n[nH]c3ccc(-c4nnc[nH]4)cc23)c1	10.7
O=C(/C=C/c1ccc(O)c(O)c1)c1ccc(O)cc1O	-0.62
CS(=O)(=O)c1ccc([C@@H](O)[C@@H](CF)NC(=O)C(Cl)Cl)cc1	3.83
Cc1c(CC(C)(C)C(=O)O)n(Cc2ccc(Cl)cc2)c2ccc(F)cc12	6.43
CN1CCN(c2ccc3nc(-c4c(N)c5c(F)cccc5[nH]c4=O)[nH]c3c2)CC1	31.4
O=c1[nH]c(=O)n(Cl)c(=O)n1Cl	3.4
O=C(NCC1CCOCC1)c1cnc(Nc2ccc(Cl)cc2Cl)nc1C(F)(F)F	-2.65
Cc1cc2nc3c(=O)[nH]c(=O)nc-3n(C[C@H](O)[C@H](O)[C@H](O)COP(=O)(O)O)c2cc1C	-0.38
CC(C)C[C@H](NC(=O)[C@H](CCCCN)NC(=O)[C@H](CCCNC(=N)N)NC(=O)[C@H](C)NC(=O)[C@H](CO)NC(=O)[C@H](CCCCN)NC(=O)[C@H](CCCNC(=N)N)NC(=O)[C@H](C)NC(=O)CNC(=O)[C@@H](NC(=O)[C@H](Cc1ccccc1)NC(=O)CNC(=O)CNC(=O)[C@@H](N)Cc1ccccc1)[C@@H](C)O)C(=O)N[C@@H](C)C(=O)N[C@@H](CC(N)=O)C(=O)N[C@@H](CCC(N)=O)C(=O)O	2.05
Cn1cc(-c2ccc3nnc(C(F)(F)c4ccc5ncccc5c4)n3n2)cn1	1.06
Cc1ncc(CNC(=O)N(CCCl)N=O)c(N)n1	6.11
Brc1c(Br)c(Br)c2n[nH]nc2c1Br	6.45
CC(C(=O)O)c1ccc2c(c1)Cc1cccnc1O2 (stereo not drawn)	3.99
OC[C@H]1O[C@@H](n2cnc3c(NC4CCCC4)ncnc32)[C@H](O)[C@@H]1O	7.78
CC(C)(C)NCC(O)CSc1nc(-c2ccc(C(N)=O)s2)cs1 (stereo not drawn)	-4.37
CCN(c1ccccc1)c1cc(=NC)n(C)c(C)n1	0.72
CCCCCCCCN[C@@H](C)[C@H](O)c1ccc(SC(C)C)cc1 (racemic)	4.68
CC(C(=O)O)c1ccc(-c2ccccc2)c(F)c1 (stereo not drawn)	6.46
CC[C@@H](C)CNCC(=O)N1CCc2sccc2[C@@H]1COc1cccc(C)c1	-0.02
Clc1cccc(SC2CCNCC2)n1	5.58
Cn1cc(C(=O)[C@@H]2CCc3[nH]cnc3C2)c2ccccc21	4.94
CCCCC(=O)OCC(=O)[C@]1(O)Cc2c(O)c3c(c(O)c2[C@@H](O[C@H]2C[C@H](NC(=O)C(F)(F)F)[C@H](O)[C@H](C)O2)C1)C(=O)c1c(OC)cccc1C3=O	-0.72

Sample 3 — method: RNA Bind-n-Seq; molecule type: RNA; medium: in vitro; tested at: not given; relative to: input RNA pool; reading: higher = stronger binding
Target: RING finger protein unkempt homolog, zinc fingers 1-6, GST-SBP tag (UNK, Homo sapiens, UniProt Q9C0B0, residues 30-357)
Notes: RNA with constant flanks, human and mouse sites, ends assumed
Shared flanks, not repeated: GGGAGUUCUACAGUCCGACGAUC … CAACAGAGGAUUGAGCAUCA
Construct (chain): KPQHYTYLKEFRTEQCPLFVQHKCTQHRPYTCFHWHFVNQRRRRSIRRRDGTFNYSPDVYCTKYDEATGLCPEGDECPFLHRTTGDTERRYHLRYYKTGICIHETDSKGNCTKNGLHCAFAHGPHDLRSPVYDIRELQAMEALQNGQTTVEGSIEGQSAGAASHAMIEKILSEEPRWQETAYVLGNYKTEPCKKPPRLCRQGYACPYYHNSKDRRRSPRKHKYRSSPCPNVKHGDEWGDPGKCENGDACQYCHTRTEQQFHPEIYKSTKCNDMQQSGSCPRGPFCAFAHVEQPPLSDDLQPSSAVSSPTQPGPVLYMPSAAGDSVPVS
Strand	bound/input enrichment
UCAAGGCUGAGAAAAGAGAAUGAUCUCUUUGAUAACUACAUGCAGCAGGAUGCUCAUGAAUUUUUAAAUUAUUUGCUAAACACUAUUGCGGACAUCCUUCAGGAGGAGAAGAAACAGGAA	0.428 ratio
UCCAAAAGCUAUGUGAAAUUACGAGACUUUGUGCUUGUGAAGCUUUGUCAAGAUUUGCCCUGUUUUUCCCGGGAAAAAUUAAUGCAAGGAUUCAAUGAAGAUAUGGCGAUAGAGGCACAA	0.114 ratio
GUUUUUGACAAAAACAGGCGUUUACAGCUUUUAGAUGGGGAAUAUGAAGUGGCCAUGCAGGAAAUGGAAGAAUGUCCAAUAAGUAAGAAAAGAGCAACAUGGGAGACAAUUCUUGAUGGG	0.721 ratio
GUGGGCUUCUGGAGGGCCGCUUUCGCCUGUCCCACGUCCUGCAAAUGCAGUGCCUCUCGGAUCUGGUGCAGCGACCCUUCUCCUGGCAUCGUGGCAUUUCCGAGAUUGGAGCCUAACAGU	0.0938 ratio
GAGCACAGCUCUACUCUGGUUACACGGAUCACCUUUGUUGUGCUAGAAUGGAAGCUACAUUUCUGGAAUGUGUGUACCCUGCUGGUGACUUUGCAGCCCCGCCUUGCCUGACCUCCCACC	0.15 ratio
UUUGUUUAUUUGCUAGUGAGUUUCUUUGUAACGUUGAUUUUAUUAAAUGAUAAUAUUUGGUUAGUAUGUCCUAUGUUAAUAAAAAUGAACAAAAUUAAUUUUGCUAUGUUCAGGUGUCUU	1.21 ratio
UAUCAAGCAGUCAUUCAAUGACUAUAACCUCUACUCCCUUGGGAUUGUAGAAUUAUAACUUUUAAAAAAAAUGUAUAAAUUAUACCUGGCCUGUACAGCUGUUUCCUACCUACUCUUCUU	0.772 ratio
UUCCAGGUUGGCCUGUGAGGAGCAGAGAGUGUUAGCAAGGUGUGCAAAGGAGGCUCUGUUCUCUCUGGUAAUAGGUGUUCUGGAGUGUUCCAGUAGGUUGGCUACUUGUCUUAGUUUCUA	0.719 ratio

Sample 4 — cell line: HEK-293T/ACE2; tested at: concentration not given; time: 16 (unit not given); relative to: vehicle
Compound	viability
Nc1ccn([C@H]2CC[C@@H](CO)O2)c(=O)n1	100%
CC(C)c1ccc2oc3nc(N)c(C(=O)O)cc3c(=O)c2c1	104%
C[C@]12CC[C@@H]3c4ccc(OS(=O)(=O)O)cc4CC[C@H]3[C@@H]1CCC2=O	107%

Sample 5 — method: protein binding microarray; molecule type: double-stranded DNA, one strand shown; medium: in vitro; tested at: not given; relative to: not given; reading: higher = stronger binding
Target: Histone acetyltransferase KAT6A, winged helix 1, GST fusion (KAT6A, Homo sapiens, UniProt Q92794, residues 1-85)
Notes: 8-mer, flanks averaged, mean of 2 arrays, mostly near background
Target sequence (chain): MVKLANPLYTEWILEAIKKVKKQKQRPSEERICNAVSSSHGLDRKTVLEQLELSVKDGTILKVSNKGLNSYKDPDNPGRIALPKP
Strand	E-score
CGCAGACG	0.258
CCGGTTGA	0.193
ACACGGTC	0.115
GGCCGCTA	0.354
AGCAAAGA	-0.225
AAAAGATT	-0.148
ATATCCTG	-0.269
ACAGTCTA	0.0332

Sample 6 — method: RNA Bind-n-Seq; molecule type: RNA; medium: in vitro; tested at: 365 nM; relative to: no-protein control; reading: higher = stronger binding
Target: RNA binding protein fox-1 homolog 2, RRM domain, GST-SBP tag (RBFOX2, Homo sapiens, UniProt O43251-10, residues 100-194)
Notes: natural RNA segment, single round, ends assumed
Shared flanks, not repeated: GGGAGUUCUACAGUCCGACGAUC … UGGAAUUCUCGGGUGCCAA
Construct (chain): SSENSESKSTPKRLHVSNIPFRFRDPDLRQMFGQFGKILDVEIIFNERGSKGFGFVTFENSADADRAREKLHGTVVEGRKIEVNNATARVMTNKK
Strand	RBNS enrichment (R)
AACCACGUGUAAUUUUGUGGAAAUGAUAUAACAGCUAUUAAUACUACUAUAACAUAGGCAUAAAUAUUUUCGUGUUUAUAUGCAUAUACAAGUUAAAAUAAUUAGAAACU	0.44
UUGUACAAAUAAGGGACUGAUGUUCUGUUUCUUGUAAUUAGAAAUAAACAUUAAUACAGUGUUCUUCUUUUCUAUUGCUGGUGAUAUCUGUUUCUAAUUUUAAAACACUG	0.367
AGUUGGCAUUUGUUAUCCUCUUGUAUACUUGUAUUCCCUUAACUCUAACCCUGUGGAAGCAUGGCUGUCUGCACAGAGGGUCCCAUUGUGCAGAAAAGCUCAGAGUAGGU	0.519
AUUGAAAAGACACUCCUCCACUUAUCCCCUCCGUGAUAUGGCUCUUCGCAUGCUGAGUACUGGACCUCGGACCAGAGCCAUGUAAGAAAAGGCCUGUUCCCUGGAAGCCC	8.15
CUGGAGACCUCGGCUCCUCCUGCUCCUGAACCAGGAGGCUUCAUGUGGGGGAGGAGGAGAGGUCUCCAUGUGACACAUGGGCUCAGGGCUGCCAGAAUCAGCGGAUGCUG	0.273
CUUCCAGCUCACCUUGAGCAGCCUCAGAUCAUCUCUGUCACUCUGGAAGGGACACCCCAGCCAGGGACGGAAUGCCUGGUCUUGAGCAACCUCCCACUGCUGGAGUGCGA	0.426
GCACGGUUUGGAAAUAUUCACAUCGCUUCUGUGUAUCUCUUUCACAUUGUUUGCUGCUAUUGGAGGAUCAGUUUUUUGUUUUACAAUGUCAUAUACUGCCAUGUACUAGU	2.84
GCUAAAUGCCAGGAGGAAAAAGGUUCUCGAAGAACAGCAGAGUUUUCCUGUAAAACCAGUCUCAUUUGGGCUUCUCAUCUGUGCUCACCUUGAACCUACAAACCUCCAUG	0.322

Repeated from above (sample 4):
Compound	viability
Nc1ccn([C@H]2CC[C@@H](CO)O2)c(=O)n1	100%
C[C@]12CC[C@@H]3c4ccc(OS(=O)(=O)O)cc4CC[C@H]3[C@@H]1CCC2=O	107%
CC(C)c1ccc2oc3nc(N)c(C(=O)O)cc3c(=O)c2c1	104%
